Results of several laboratories.
A part holds a random share of what one study measured. “And” joins repeats or separate records; there may be more than shown.
Sequence of UniProt Q13873 (whole entry, looked up): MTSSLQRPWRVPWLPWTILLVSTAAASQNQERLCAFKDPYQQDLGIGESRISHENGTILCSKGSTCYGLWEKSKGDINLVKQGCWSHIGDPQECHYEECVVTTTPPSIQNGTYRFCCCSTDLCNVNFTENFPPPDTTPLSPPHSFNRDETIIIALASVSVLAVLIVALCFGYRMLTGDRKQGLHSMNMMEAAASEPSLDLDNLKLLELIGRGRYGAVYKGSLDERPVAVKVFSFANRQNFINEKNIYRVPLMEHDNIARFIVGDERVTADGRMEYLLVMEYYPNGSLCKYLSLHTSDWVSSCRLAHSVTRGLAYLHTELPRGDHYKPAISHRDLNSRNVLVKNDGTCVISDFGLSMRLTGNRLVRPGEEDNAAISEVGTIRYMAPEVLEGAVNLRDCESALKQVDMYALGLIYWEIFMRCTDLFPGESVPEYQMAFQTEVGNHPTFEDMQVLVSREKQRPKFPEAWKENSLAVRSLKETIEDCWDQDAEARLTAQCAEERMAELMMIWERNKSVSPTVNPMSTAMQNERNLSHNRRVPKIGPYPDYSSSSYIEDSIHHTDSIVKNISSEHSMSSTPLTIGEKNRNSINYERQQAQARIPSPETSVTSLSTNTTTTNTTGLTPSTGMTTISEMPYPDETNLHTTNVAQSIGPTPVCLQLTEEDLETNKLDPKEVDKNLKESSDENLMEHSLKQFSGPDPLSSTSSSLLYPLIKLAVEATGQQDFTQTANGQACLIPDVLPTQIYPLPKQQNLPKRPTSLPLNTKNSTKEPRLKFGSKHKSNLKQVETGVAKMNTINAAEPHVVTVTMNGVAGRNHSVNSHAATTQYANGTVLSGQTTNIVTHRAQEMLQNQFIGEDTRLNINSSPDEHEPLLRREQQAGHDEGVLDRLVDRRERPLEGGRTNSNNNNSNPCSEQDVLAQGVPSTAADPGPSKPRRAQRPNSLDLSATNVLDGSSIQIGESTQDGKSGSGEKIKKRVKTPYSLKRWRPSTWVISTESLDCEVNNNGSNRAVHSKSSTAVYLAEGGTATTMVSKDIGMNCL
Sequence of UniProt P35590 (whole entry, looked up): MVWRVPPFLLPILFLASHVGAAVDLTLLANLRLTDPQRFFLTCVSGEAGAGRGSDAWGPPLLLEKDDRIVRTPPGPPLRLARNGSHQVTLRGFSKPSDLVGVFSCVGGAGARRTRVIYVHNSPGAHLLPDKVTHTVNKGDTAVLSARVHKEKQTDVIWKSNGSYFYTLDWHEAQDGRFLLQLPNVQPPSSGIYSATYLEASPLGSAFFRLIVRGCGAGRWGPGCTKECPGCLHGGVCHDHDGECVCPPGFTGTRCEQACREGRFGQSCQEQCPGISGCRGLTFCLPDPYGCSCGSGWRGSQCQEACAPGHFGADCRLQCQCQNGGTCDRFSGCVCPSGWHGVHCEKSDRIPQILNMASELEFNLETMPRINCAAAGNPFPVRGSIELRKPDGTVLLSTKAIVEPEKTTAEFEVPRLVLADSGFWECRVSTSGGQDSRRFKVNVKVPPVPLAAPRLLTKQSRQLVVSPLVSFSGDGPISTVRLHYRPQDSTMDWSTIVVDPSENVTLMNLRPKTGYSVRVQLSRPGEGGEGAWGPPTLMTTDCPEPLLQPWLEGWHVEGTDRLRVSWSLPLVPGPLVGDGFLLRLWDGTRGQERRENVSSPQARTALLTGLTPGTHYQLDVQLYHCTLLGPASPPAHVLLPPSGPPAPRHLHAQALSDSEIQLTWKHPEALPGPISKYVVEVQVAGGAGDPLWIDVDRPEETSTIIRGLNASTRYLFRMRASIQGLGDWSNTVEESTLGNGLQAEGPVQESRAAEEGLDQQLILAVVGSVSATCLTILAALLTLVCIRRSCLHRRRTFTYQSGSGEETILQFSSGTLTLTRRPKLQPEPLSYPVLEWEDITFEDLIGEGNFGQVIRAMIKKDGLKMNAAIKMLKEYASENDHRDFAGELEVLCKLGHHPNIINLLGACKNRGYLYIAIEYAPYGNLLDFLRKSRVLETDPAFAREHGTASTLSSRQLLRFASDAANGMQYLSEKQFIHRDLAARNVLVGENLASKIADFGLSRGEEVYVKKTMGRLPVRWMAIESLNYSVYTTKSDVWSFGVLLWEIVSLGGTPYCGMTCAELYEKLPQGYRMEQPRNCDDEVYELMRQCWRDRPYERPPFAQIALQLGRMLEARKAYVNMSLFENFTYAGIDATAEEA

Set 1
Target: DNA polymerase theta, ATPase domain (POLQ, Homo sapiens, UniProt O75417)
Sequence of UniProt O75417 (whole entry, unmodified, looked up): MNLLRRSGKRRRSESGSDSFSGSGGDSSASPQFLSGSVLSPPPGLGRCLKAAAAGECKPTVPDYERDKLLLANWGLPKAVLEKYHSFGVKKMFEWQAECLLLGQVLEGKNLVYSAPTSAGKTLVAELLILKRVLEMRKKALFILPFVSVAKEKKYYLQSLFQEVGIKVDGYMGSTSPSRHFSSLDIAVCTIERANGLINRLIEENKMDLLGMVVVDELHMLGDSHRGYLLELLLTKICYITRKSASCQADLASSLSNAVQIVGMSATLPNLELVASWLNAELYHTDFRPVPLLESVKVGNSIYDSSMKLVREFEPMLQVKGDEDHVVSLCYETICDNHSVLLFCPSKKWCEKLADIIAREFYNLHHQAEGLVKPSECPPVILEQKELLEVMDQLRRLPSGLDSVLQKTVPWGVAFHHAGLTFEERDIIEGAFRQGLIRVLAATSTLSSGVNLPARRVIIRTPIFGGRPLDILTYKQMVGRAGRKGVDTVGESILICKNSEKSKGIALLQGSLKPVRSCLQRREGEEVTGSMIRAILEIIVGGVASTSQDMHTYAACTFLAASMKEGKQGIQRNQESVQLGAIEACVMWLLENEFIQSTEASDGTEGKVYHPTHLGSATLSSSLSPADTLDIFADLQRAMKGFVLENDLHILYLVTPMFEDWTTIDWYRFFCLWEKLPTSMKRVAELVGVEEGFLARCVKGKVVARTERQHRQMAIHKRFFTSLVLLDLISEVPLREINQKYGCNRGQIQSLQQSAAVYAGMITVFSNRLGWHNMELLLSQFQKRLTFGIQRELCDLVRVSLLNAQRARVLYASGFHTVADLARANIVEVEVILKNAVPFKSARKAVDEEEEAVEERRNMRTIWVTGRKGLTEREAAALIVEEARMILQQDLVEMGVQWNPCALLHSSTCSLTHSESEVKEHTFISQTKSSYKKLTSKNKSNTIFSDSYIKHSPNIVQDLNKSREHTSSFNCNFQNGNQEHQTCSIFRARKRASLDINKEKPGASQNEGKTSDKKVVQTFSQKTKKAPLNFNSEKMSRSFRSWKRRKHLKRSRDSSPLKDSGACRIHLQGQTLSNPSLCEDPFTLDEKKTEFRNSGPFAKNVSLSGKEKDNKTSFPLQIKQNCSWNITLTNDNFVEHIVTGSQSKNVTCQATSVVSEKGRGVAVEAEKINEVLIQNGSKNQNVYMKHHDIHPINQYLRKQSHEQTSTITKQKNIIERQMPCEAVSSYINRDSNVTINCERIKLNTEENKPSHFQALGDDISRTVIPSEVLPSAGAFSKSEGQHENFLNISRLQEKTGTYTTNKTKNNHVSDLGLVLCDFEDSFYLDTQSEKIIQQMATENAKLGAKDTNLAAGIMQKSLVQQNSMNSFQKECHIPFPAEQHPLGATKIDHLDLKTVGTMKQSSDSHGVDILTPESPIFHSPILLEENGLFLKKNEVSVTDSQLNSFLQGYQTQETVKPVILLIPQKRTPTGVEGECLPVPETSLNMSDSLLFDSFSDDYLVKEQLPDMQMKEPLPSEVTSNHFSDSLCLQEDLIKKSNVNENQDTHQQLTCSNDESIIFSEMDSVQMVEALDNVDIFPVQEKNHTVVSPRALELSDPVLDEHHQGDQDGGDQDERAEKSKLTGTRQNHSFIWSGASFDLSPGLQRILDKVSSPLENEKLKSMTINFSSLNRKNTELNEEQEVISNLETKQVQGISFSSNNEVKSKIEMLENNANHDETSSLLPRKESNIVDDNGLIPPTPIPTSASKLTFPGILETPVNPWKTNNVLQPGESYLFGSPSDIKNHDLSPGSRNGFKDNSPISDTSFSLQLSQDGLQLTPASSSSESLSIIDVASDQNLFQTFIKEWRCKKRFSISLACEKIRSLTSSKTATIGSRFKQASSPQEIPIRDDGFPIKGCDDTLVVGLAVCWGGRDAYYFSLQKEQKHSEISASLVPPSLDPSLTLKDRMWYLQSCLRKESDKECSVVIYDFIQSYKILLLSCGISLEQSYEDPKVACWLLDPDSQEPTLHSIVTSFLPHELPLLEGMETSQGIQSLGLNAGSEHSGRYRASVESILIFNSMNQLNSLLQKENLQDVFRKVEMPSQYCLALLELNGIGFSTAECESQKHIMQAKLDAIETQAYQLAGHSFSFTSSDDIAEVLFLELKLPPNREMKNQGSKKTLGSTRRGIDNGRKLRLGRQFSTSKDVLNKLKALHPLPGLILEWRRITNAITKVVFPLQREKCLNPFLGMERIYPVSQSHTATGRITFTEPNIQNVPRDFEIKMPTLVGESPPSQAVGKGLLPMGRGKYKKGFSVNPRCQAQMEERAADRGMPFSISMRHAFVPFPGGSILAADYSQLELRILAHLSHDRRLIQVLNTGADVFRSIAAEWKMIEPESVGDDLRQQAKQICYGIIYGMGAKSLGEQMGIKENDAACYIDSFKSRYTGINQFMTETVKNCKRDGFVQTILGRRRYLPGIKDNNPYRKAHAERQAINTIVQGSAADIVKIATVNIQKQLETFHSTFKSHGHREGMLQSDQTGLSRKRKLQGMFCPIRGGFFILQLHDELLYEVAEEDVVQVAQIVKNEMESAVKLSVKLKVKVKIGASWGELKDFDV
Read-out: enzyme activity
Action: inhibitor
Tested at: 77 µM
Reference: untreated
Compound | remaining activity [%]
CCc1cc(Nc2nccc(-c3c(-c4ccc(OC)c(C(=O)Nc5c(F)cccc5F)c4)nc4ccccn34)n2)c(OC)cc1N1CCC(N2CCN(S(C)(=O)=O)CC2)CC1 | 101
Cc1ccccc1C(=O)Nc1ccc(C(=O)N2CCCC(O)c3cc(Cl)ccc32)c(C)c1 (centres unmarked) | 102
Cc1cc(CC(=O)O)n(C)c1C(=O)c1ccc(Cl)cc1 | 101
CCCC(C)NC(=O)c1ccc(Cl)c(Cl)c1 (centres unmarked) | 98.3
CC[C@H](C)C(=O)O[C@H]1C[C@H](O)C=C2C=C[C@H](C)[C@H](CC[C@@H](O)C[C@@H](O)CC(=O)O)[C@H]21 | 95.7
N=C(N=C(N)N)N1CCOCC1 | 93.6
CCOC(=O)C1=C(COCCN)NC(C)=C(C(=O)OC)C1c1ccccc1Cl (centres unmarked) | 96.4

Set 2
Structure (SMILES): COc1ccc2[nH]c3c4[nH]c5ccc(OC)cc5c4c4c(c3c2c1)C(=O)NC4=O
target | read-out | technique | tested at | remaining binding [%]
TIE1 (Homo sapiens, UniProt P35590) | binding | competition with immobilised ligand | 1 µM | 100
CDK11B (Homo sapiens, UniProt P21127) | binding | competition with immobilised ligand | 1 µM | 90
MAP4K1 (Homo sapiens, UniProt Q92918) | binding | competition with immobilised ligand | 1 µM | 90
PDGFRA (Homo sapiens, UniProt P16234) | – | DiscoverX cell-free binding | 1000 nM | 11
COQ8A (Homo sapiens, UniProt Q8NI60) | binding | competition with immobilised ligand | 1 µM | 100
BMPR2 (Homo sapiens, UniProt Q13873) | binding | – | 1 µM | 93

Set 3
Cell line: mouse MPNST tumor cells
Technique: high-content immunofluorescence imaging
Measured: nuclear SOX9
Tested at: 10 µM
Time: 12 h
Notes: mean of 2 replicates
Reference: DMSO control
Direction: higher = more nuclear SOX9
SMILES | nuclear SOX9 intensity
COc1cc2c(cc1OC)-c1c/c(=N\c3c(C)cc(C)cc3C)n(C)c(=O)n1CC2 | 128 % of DMSO
Nc1nc(OCc2cc(Br)cs2)c2[nH]cnc2n1 | 105 % of DMSO
O=C1OC(OC(=O)c2cccnc2Nc2cccc(C(F)(F)F)c2)c2ccccc21 (centres unmarked) | 102 % of DMSO
CC1CC(C)(C)N(C(=O)CN2C(=O)c3ccccc3C2=O)c2ccccc21 (centres unmarked) | 96.7 % of DMSO
Cc1nc2n(c(=O)c1CCN1CCC(c3noc4cc(F)ccc34)CC1)CCCC2 | 95.2 % of DMSO and 94.4 % of DMSO
COc1ccn2ncc(-c3nc4[nH]nc(NC(=O)c5ccc(F)cc5)c4cc3F)c2c1 | 101 % of DMSO

Mixed results
SMILES | target | technique | tested at | notes | reference | quantity | value
COc1ccc2c(c1)O[C@@H](c1ccc(OC)c(OC)c1)C[C@H]2NC(=O)C1(c2ccc3c(c2)OC(F)(F)O3)CC1 (single isomer, unassigned) | Tyrosine-protein kinase ABL1 (ABL1, Homo sapiens, UniProt P00519, F317I) | KINOMEscan | 1 µM | F317I mutant, phosphorylated | control | remaining binding | 100%
